{"data": "Measurements pooled from the literature", "note": "Every numbered part comes from another study and shows a few of its results, in no order. Substitutions count along the parent as printed."}
{"data": "Set 1", "target": "UBE2D1 UBC core domain (UniProt P51668)", "technique": "yeast two-hybrid", "medium": "yeast", "setting": "mostly zero background", "relative to": "not given", "reading": "higher = stronger interaction", "B1": "TRIM26 RING domain (UniProt Q12899); chain PLRSLEEEVTCSICLDYLRDPVTIDCGHVFCRSCTTDVRPISGSRPVCPLCKKPFKKENIRP", "B2": "RNF2 RING domain (UniProt Q99496); chain SPRSLHSELMCPICLDMLKNTMTTKECLHRFCADCIITALRSGNKECPTCRKKLVSKRSLR", "B3": "TRIM54 RING domain (UniProt Q9BYV2); chain SMDNLEKQLICPICLEMFSKPVVILPCQHNLCRKCANDVFQASNPLWQSRGSTTVSSGGRFRCPSCRHEVVLDRHGV", "B4": "RNF166 RING domain (UniProt Q96A37); chain GDSGLEAQYTCPICLEVYHRPVAIGSCGHTFCGECLQPCLQVPSPLCPLCRLPFDPKKVDK", "B5": "TRIM31 RING domain (UniProt Q9BZY9); chain FVNKLQEEVICPICLDILQKPVTIDCGHNFCLKCITQIGETSCGFFKCPLCKTSVRKNAIRF", "B6": "RNF152 RING domain (UniProt Q8N8N0); chain ETLSQDSLLECQICFNYYSPRRRPKLLDCKHTCCSVCLQQMRTSQKDVRCPWCRGVTKLPPGFS", "B7": "TRIM37 RING domain (UniProt O94972); chain SVESIAEVFRCFICMEKLRDARLCPHCSKLCCFSCIRRWLTEQRAQCPHCRAPLQLRELVN", "B8": "RNF122 RING domain (UniProt Q9H9V4); chain AKKLQLYGQTCAVCLEDFKGKDELGVLPCQHAFHRKCLVKWLEVRCVCPMCNKPIASPSEAT", "sequence of UniProt P51668 (whole entry, looked up)": "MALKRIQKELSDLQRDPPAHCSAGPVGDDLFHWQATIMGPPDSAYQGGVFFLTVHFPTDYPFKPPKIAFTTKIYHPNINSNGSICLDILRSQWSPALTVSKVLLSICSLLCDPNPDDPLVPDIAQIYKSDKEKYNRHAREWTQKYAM"}
{"Sequence": "PEELAVNNDDCAICWDSMQAARKLPCGHLFHNSCLRSWLEQDTSCPTCRMSLNIADNNR (AMFR RING domain (UniProt Q9UKV5))", "lacZ reporter activity": 5170}
{"Sequence": "YCEMGSTFQLCKICAENDKDVKIEPCGHLMCTSCLTAWQESDGQGCPFCRCEIKGTEPII (CBLB RING domain (UniProt Q13191))", "lacZ reporter activity": 0}
{"Sequence": "B1 (TRIM26 RING domain)", "lacZ reporter activity": 0}
{"Sequence": "YPEEVDDDLICHICLQALLDPLDTPCGHTYCTLCLTNFLVEKDFCPMDRKPLVLQHCKK (LNX1 RING domain (UniProt Q8TBB1))", "lacZ reporter activity": 0}
{"Sequence": "B2 (RNF2 RING domain)", "lacZ reporter activity": 0}
{"Sequence": "B3 (TRIM54 RING domain)", "lacZ reporter activity": 0}
{"Sequence": "B4 (RNF166 RING domain)", "lacZ reporter activity": 0}
{"Sequence": "B5 (TRIM31 RING domain)", "lacZ reporter activity": 0}
{"Sequence": "AEADPLGRFTCPVCLEVYEKPVQVPCGHVFCSACLQECLKPKKPVCGVCRSALAPGVRAV (RNF114 RING domain (UniProt Q9Y508))", "lacZ reporter activity": 0}
{"Sequence": "B6 (RNF152 RING domain)", "lacZ reporter activity": 0}
{"Sequence": "B7 (TRIM37 RING domain)", "lacZ reporter activity": 0}
{"Sequence": "QVQSRTKIEECVVCSDKKAAVLFQPCGHMCACENCANLMKKCVQCRAVVERRVPFI (MIB1 RING domain (UniProt Q86YT6))", "lacZ reporter activity": 0}
{"Sequence": "B8 (RNF122 RING domain)", "lacZ reporter activity": 2230}
{"data": "Set 2", "target": "RNA binding protein fox-1 homolog 2, RRM domain, GST-SBP tag (RBFOX2, Homo sapiens, UniProt O43251-10, residues 100-194)", "technique": "RNA Bind-n-Seq", "molecule type": "RNA", "medium": "in vitro", "concentration": "365 nM", "setting": "natural RNA segment, single round, ends assumed", "relative to": "no-protein control", "reading": "higher = stronger binding", "shared flanks, not repeated": "GGGAGUUCUACAGUCCGACGAUC … UGGAAUUCUCGGGUGCCAA", "Residues (chain)": "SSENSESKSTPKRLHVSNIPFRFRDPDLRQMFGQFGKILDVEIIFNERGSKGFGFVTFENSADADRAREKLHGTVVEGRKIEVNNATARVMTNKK"}
{"Sequence": "AAGGCUUCGCUUACUAAGUUUCUGAAUGGCCGAGUAGCCACACCCUAGAGCUAGCAGUCCUCAUCCAGGCAACCGAGGGCAGUGGUUUUGUUUGUGUUCUUGGCUGUUCC", "RBNS enrichment (R)": 1.3}
{"Sequence": "GAGGUGUGGAGCCGAGGCCUACCCCGCAGACACCUUGGACAUCCUCCUCCCACCCGGCUGCAGAGGCCAGAGGCCCCCAGCCCAGGGCUCCUGCACUUACUUGCUUAUUU", "RBNS enrichment (R)": 0.308}
{"Sequence": "ACCAUCAGAUAACUGUAUUUUGUCAGGUGCAAUAAAAACAAAAUUAAAACCCAAAUCAUCAAGAAAACCUGUAUUCCUGGCUUCCUUGUAUACACAUGAUGUGACUAGAG", "RBNS enrichment (R)": 0.309}
{"Sequence": "GAUUUCAAACUGAAUAUGGGUCCCCAAAUGUUCCCAGAGGGUCCUCCACACCCUCUGCCGACUACCACGGUGUGGAUUCAGCUCCCAAAUGACAAACCCAGCCCUUCCCA", "RBNS enrichment (R)": 0.285}
{"Sequence": "AGACAGACUGCGAAUCACUUUUCUGCUGUGAGGGUGAUGGUGCCUGAUGCGGUGUCUCGCCUAUCUCCUUAUUUAAGCCCUUAACUCCUUGCCCUUUGAGAGUGUCCAUU", "RBNS enrichment (R)": 0.23}
{"Sequence": "AGCACUGACCUGGGAGGCCCCCAAGUAAGGCCAAGAAGUCUCUGCUACUCUAAUCUUUUACGUAUUAAAUGCACUAGGCUAGUAGCCCUUGCCUUUCCUUUCCUGAAACU", "RBNS enrichment (R)": 0.312}
{"Sequence": "AGGUCAGGAUGUCUGCAGUUGGAGAUGUAAAUAUUUUGUACAGUAAAUAAAAUGCCUACAAUAAUAAGAGCUAAAUGAGUGUUUGAGUGGGGGGUGGGACAAUGCUUACA", "RBNS enrichment (R)": 1.66}
{"Sequence": "AUUUGUUGUUGUUUUUCCUCAAAAUUACCAAACAAAGCAAAAAAUACCCUUGUUUUUUAUAGUUGAGAUGUCAAGAAGUUAAAUUGAGGCUUAAUGAGCAUAGGUAGCUU", "RBNS enrichment (R)": 0.483}
{"data": "Set 3", "target": "ABI1, truncated, D143A, DHFR fusion (Arabidopsis thaliana)", "technique": "DHFR PCA, deep sequencing", "medium": "yeast", "setting": "methotrexate growth selection, single substitutions", "together with": "(+)-ABA 0.032 µM", "relative to": "wild-type fitted maximum", "reading": "higher = stronger binding", "starting sequence": "PYL1, truncated, DHFR fusion (Arabidopsis thaliana); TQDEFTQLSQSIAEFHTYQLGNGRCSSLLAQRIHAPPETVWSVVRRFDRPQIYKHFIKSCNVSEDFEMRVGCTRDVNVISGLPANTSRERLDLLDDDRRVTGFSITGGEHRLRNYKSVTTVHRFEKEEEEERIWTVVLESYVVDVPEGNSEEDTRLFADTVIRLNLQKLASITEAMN; partner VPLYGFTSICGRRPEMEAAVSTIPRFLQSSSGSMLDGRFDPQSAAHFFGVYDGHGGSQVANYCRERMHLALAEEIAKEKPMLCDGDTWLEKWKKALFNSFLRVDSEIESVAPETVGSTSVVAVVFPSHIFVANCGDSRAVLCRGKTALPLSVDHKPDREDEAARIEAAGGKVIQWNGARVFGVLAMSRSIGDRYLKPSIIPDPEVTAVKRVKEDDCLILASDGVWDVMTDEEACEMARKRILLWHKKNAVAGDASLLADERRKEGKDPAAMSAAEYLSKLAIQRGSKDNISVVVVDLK"}
{"Change": "A35V", "relative binding score [%]": 0.617}
{"Change": "L8F", "relative binding score [%]": 27.1}
{"Change": "Q10W", "relative binding score [%]": 5.06}
{"Change": "M176Y", "relative binding score [%]": 1.15}
{"Change": "R49L", "relative binding score [%]": 1.24}
{"Change": "V62L", "relative binding score [%]": 15.5}
{"Change": "V100R", "relative binding score [%]": 2.34}
{"Change": "K54Y", "relative binding score [%]": -0.519}
{"Change": "L94A", "relative binding score [%]": 1.81}
{"Change": "L20R", "relative binding score [%]": 31}
{"Change": "G108K", "relative binding score [%]": -6.78}
{"Change": "D48I", "relative binding score [%]": -0.53}
{"Change": "G148W", "relative binding score [%]": 2.74}
{"Change": "L8S", "relative binding score [%]": 5.54}
{"Change": "T39W", "relative binding score [%]": 1.13}
{"Change": "Q167T", "relative binding score [%]": 8.7}
{"Change": "E67P", "relative binding score [%]": 4.15}
{"Change": "D153N", "relative binding score [%]": -2.96}
{"Change": "L166A", "relative binding score [%]": 3.59}
{"Change": "W41Q", "relative binding score [%]": 0.269}
{"Change": "I133S", "relative binding score [%]": 32.4}
{"data": "Set 4", "target": "Histone acetyltransferase KAT6A, winged helix 2, GST fusion (KAT6A, Homo sapiens, UniProt Q92794, residues 85-181)", "technique": "protein binding microarray", "molecule type": "double-stranded DNA, one strand shown", "medium": "in vitro", "concentration": "not given", "setting": "8-mer, flanks averaged, mean of 2 arrays, mostly near background", "relative to": "not given", "reading": "higher = stronger binding", "Target sequence (chain)": "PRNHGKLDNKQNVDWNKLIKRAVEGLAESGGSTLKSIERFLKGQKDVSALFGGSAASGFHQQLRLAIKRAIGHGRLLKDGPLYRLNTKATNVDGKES"}
{"Sequence": "TGATTTAA", "E-score": -0.000825}
{"Sequence": "GCCTTATA", "E-score": -0.0429}
{"Sequence": "AGGGGGAC", "E-score": -0.129}
{"Sequence": "ACATCCGA", "E-score": 0.0231}
{"Sequence": "ACCAACAT", "E-score": -0.0133}
{"Sequence": "CATTGCAA", "E-score": -0.171}
{"Sequence": "CTACCATC", "E-score": -0.114}
{"Sequence": "CCATAGTC", "E-score": -0.0637}
{"Sequence": "GACTTCGC", "E-score": 0.0668}
{"Sequence": "CTGTGGAC", "E-score": -0.11}
{"Sequence": "CTTACGTC", "E-score": -0.168}
{"Sequence": "CCGAAAAC", "E-score": 0.0616}
{"Sequence": "TAGACGCA", "E-score": -0.0841}
{"Sequence": "GCTTTGGA", "E-score": -0.0196}
{"Sequence": "ACGCCCAC", "E-score": 0.0755}
{"Sequence": "ATCCGGGC", "E-score": 0.193}
{"note": "Some of these lines once more (set 3):"}
{"Change": "T39W", "relative binding score [%]": 1.13}
{"Change": "Q167T", "relative binding score [%]": 8.7}
{"Change": "E67P", "relative binding score [%]": 4.15}
